Measurements collected from several papers.
Every numbered part comes from another study and shows a few of its results, in no order.

Set 1 — technique: competition protein-binding microarray; form: double-stranded DNA, one strand shown; matrix: in vitro; concentration: 2 µM; together with: Cbf1 competitor, 0.05 µM; reading: higher = stronger binding; constant ends, left off below: … GTCTTGATTCGCTTGACGCTGCTG
Target: Phosphate system positive regulatory protein PHO4, full length, GST-tagged (PHO4, Saccharomyces cerevisiae, UniProt P07270, residues 1-312)
Setting: whole 60-bp probe, lowest competitor level
Target sequence (chain): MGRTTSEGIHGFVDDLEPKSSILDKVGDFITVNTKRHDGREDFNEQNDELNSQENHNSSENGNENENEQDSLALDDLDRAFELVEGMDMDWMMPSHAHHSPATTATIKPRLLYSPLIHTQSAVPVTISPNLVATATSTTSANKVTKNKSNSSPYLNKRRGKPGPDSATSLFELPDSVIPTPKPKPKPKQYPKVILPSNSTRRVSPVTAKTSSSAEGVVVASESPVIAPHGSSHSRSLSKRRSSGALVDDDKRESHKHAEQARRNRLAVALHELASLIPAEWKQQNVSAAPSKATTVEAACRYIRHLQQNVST
Oligonucleotide | fluorescence intensity [a.u.]
AAGTCATAGAATCACCACGTGAAAAAAAAAAAAAAA | 8850
GCACTTAAGGTAAGGCGCATGATGTACCTGTTTTAT | 6730
CCCACATATATACCGATGTTGATAAACACCATTAAA | 4300
AACTCTTTTGAAAATTACGTGCCAGAAAACCCAACC | 5220
CTTCTGTAAATTTGTGGTGTGGGTGGACGCGCCCCG | 4780
ACTGCCGTTGTTCATACCGTGACTCGTAGTGGCAGT | 4370
AAAAAAAAAAAAAGGTATGTGCGGGAAGAGAATCTA | 4450
CATACCCAACCTTAACACGTGTTTTAAGATATTTGT | 21900
AAGTACGTCCTCTTGGCCGTGATGGCTGTTGTATTT | 3590
AAAGCGGTAATTTGTCACGGGACTTCACATATCTAT | 6870
TCATGTTCCTGACAGGGCGTGATGGACTTTACTATT | 5840
CGTCCTAGTGATTTTCACGTGGAGTCCATGAGGAAG | 13500

Set 2 — technique: universal PBM; form: double-stranded DNA, one strand shown; matrix: in vitro; concentration: not given; reading: higher = stronger binding
Target: Sal-like protein 4, full length isoform B (SALL4, Homo sapiens, UniProt Q9UJQ4-2, residues 1-616)
Setting: 8-mer, flanks averaged, mean of replicates
Construct (chain): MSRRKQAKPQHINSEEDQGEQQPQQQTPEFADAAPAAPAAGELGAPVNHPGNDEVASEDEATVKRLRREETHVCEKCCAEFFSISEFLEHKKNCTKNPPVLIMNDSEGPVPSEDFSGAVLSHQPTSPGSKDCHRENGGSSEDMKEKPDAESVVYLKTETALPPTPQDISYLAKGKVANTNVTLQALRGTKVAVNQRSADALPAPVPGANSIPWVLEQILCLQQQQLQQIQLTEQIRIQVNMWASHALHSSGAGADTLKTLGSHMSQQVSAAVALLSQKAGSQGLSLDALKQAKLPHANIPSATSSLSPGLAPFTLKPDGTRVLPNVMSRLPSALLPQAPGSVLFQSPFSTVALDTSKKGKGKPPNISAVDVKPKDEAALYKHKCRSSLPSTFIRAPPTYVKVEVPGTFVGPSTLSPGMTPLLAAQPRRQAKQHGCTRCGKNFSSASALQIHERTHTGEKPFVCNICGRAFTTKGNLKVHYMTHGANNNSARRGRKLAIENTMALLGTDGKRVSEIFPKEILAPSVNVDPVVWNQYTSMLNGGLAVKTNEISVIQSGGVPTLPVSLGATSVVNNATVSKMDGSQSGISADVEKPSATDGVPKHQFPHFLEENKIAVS
Oligonucleotide | E-score
CTATAGAA | 0.262
CGCCTGCC | -0.301
ACTGATCA | 0.0696
CCCCACAC | -0.0537
AGTGGATG | -0.088
AGTGAGAA | 0.0631
GTTGTACA | 0.193
CGCAACGA | -0.151
AGGTTGAA | 0.101
CACTTGAG | -0.101
ACAGTAAC | 0.0967
GACTCCGC | -0.293
TGGTTCAA | 0.0867
GGCTGACC | -0.216
ATGAGAAG | 0.0486
CCTCGATC | -0.132
ACTGCAGG | -0.19
TGCTCACA | -0.0369
CAAAAGGA | 0.13
AGGGCGAC | -0.247
GCTGTGAC | -0.118
CGACCGAG | -0.287
CCTTAGAA | -0.00173
CGTGTCAG | -0.14
GAGCCTGC | -0.259

Set 3 — technique: RNA Bind-n-Seq; form: RNA; matrix: in vitro; concentration: 365 nM; baseline: no-protein control; reading: higher = stronger binding
Target: RNA binding protein fox-1 homolog 2, RRM domain, GST-SBP tag (RBFOX2, Homo sapiens, UniProt O43251-10, residues 100-194)
Setting: natural RNA segment, single round, ends assumed
Constant ends, left off below: GGGAGUUCUACAGUCCGACGAUC … UGGAAUUCUCGGGUGCCAA
Construct (chain): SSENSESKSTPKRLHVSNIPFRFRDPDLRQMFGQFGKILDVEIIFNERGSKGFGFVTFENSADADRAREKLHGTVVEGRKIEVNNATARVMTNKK
Oligonucleotide | RBNS enrichment (R)
CCAGGGGAGGAGGUGGGCAAGCUAACCGAAAGACUCCAUCUUUGUGUGCCCCACCCCUGGACAUAUACUGCUAAGGACAUCUCAAUACUAGACUCAGUCAGGAGUGGUGG | 0.497
AAUGCCACCGUUUCCUCUAAGACUGGCCAUUAAUGUUUCGUCGGCGGAAGUCGCUCUCCUGGGAGGCAAUGAGCAUUGCCGUAUAGGUUCCUGUUUAUUAGAGAGUAUGC | 0.408
AUCCAAAACAAACUCCAUCCCCCCCAAGGCAGCCCAAAUAUCCAGAAACGGGCUCACCUGGACUAUAGAAUUUCUGCUGGUCAGAUAAAGACAGCAUUCCUCGGGAACCC | 0.673
UGUAGUCUUACAGGGCUGUGCUUGCUGGGCAUGCUUUUACGUCUGUGAGAUAAUUUCGGUUCAGUAAAUUGGCCAAUCUUUUUAUUUUUCUAAGACACAGAAAUGUAUUU | 1.33
UCAGAUAAAAAUCAGGUUGUAAGUUAUAUUGAAGACAAUUUGAUACAUAAUAAAAGAUUAUAACAGUUCUCGGGCUGAUUGCUGGUAUUGCUUUCUAAAUUAGUUUUUAG | 0.526
UUGUCAACAGGAGGCUCAAGAUGUGAGAGGUGUGAGUCAGACGCCCGAGGAACUUACAGGAGGAGCCUAGGUCUGAAGUCAGUGUUAGGGAAGGGCCCAUAGCCACUUCC | 0.955
GGUCAUCUAGUACCUGAUUGGAUAGCUUACAUAUUUAUUGGAUGCUUUGAACAGCUGUAUAUUAGUCCAUAACAUAACUACAAGAUUAGAUAGAGGCAACAUACUGUUAA | 0.689
CUUACAUCAAAAUGAAAGUAAUUACAUUAAUAGAAAACUUCCAAGUGGAAUAUUGUUCACAGGCAGCUCUUUCUGACCCUGGCUCUUGAGUCACAUAAGGAAACCACCUU | 0.626
GCUUGCCACAAUGAUUCCGUGUUUUUACAGGGCAUUCAACUGCUGCAAAGGUUAACAUAUAAUGCCAAAUUUUUCCAUUCUGGUGCCCAUAUAGAUGACUUAAUUACAUU | 0.389
AUACAUCACUUCCUGUUUUAUGCAGCUCAAAAAACAUAGACUGAAGAUUUAUUUUUUAAUAUGUUGACUUUGUUUCUCAGCAAAGCAUUGGUCAUGUGUGUAUUUUUCCA | 0.283
GAGAUUUGUCUUUUUCUCCUUUGGCUGUGUGUUGUCCAGGGAUAUAUAUUUCCUAAAAUCUUUUUAAAGUGAAUUUAUAUGUGCACAUAUGUGUGUGUAGGGGGAGGAUA | 1.11
AGAACCUAACCAAAAGGUUUCCCGUUCAGAAGUUUCCUUAGCUCUCGUCCCAAGCUAUUCGCUCACAUUAACAAGUCAAAGUGCCUGAAGCAUAACUCAUUUACCUGUAU | 0.53

Further values, each from its own experiment
Molecule | target | test | system | setting | how to read | endpoint | value
PhoQ, residues 284 288 289 292 302 303 SIHMAM | PhoP, residues 12 14 15 18 19 NMSFL (Escherichia coli, UniProt P23836) | Sort-seq, item: YFP reporter | E. coli | PhoQ-PhoP variant library, together with: 10 µM Mg2+ | baseline: high Mg2+ state, higher = stronger signaling | fold induction | 10.8

A few entries again (set 2):
Oligonucleotide | E-score
ACAGTAAC | 0.0967
CTATAGAA | 0.262
CCTTAGAA | -0.00173
AGGTTGAA | 0.101
GACTCCGC | -0.293
AGTGGATG | -0.088
TGCTCACA | -0.0369
GGCTGACC | -0.216
